# Experimental data of several laboratories.
# Every numbered part comes from another study and shows a few of its results, in no order. Several values in a cell are separate wells, animals, samples, runs or records.
# UniProt P42336, sequence (whole entry, unmodified, looked up): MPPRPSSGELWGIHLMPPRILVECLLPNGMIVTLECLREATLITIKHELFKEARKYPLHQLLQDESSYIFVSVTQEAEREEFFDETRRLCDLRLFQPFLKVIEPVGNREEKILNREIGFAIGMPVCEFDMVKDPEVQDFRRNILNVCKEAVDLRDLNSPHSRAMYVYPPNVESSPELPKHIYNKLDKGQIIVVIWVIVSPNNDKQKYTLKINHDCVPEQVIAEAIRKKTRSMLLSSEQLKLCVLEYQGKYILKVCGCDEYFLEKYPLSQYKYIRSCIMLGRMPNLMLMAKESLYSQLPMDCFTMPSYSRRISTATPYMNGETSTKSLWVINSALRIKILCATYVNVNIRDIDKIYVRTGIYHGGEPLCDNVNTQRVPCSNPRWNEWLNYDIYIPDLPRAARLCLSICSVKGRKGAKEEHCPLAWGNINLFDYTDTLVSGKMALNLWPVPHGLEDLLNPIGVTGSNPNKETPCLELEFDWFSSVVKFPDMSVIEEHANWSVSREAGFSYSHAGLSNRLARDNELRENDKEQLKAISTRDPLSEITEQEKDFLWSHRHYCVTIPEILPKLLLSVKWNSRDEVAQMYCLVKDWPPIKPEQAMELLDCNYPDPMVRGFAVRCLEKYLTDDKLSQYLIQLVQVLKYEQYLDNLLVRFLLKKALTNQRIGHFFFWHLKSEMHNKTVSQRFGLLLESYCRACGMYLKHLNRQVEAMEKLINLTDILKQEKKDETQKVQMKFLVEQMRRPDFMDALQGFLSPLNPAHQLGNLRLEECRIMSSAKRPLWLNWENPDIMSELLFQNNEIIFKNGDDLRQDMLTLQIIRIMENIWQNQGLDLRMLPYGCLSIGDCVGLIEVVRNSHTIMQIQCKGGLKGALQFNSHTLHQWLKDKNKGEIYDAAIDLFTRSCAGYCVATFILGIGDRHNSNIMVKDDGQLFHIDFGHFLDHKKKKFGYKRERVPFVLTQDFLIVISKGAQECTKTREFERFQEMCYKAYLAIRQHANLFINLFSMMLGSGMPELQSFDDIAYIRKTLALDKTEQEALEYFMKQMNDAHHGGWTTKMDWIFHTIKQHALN
# UniProt P51955, sequence (whole entry, looked up): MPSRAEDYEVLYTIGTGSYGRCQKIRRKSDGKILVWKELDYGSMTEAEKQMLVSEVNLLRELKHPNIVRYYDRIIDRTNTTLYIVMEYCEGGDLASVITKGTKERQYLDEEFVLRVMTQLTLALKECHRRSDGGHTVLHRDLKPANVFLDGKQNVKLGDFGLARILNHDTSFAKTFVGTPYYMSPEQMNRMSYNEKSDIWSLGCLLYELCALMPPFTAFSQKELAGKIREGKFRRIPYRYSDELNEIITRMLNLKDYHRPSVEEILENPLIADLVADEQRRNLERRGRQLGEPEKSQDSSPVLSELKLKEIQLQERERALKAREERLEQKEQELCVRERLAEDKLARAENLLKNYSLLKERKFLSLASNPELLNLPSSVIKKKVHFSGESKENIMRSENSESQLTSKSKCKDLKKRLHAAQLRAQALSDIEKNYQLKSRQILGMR
# UniProt P53667, sequence (whole entry, looked up): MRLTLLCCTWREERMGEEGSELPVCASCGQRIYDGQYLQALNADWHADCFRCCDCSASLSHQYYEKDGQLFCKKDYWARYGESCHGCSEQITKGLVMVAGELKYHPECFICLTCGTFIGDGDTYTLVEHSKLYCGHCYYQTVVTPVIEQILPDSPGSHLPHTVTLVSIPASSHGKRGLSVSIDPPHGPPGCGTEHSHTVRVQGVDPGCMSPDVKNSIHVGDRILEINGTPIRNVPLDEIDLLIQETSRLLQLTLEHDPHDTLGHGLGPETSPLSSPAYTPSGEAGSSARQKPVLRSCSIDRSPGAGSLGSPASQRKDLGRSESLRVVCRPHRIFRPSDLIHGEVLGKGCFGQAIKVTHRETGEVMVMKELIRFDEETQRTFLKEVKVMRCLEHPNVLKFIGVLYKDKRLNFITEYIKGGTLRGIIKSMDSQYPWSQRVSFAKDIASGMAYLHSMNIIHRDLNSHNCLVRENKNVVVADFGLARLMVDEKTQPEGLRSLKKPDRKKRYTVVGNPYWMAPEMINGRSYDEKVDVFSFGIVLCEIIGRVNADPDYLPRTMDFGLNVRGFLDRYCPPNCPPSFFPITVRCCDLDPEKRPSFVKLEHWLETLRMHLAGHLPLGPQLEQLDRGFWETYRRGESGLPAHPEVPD
# UniProt O15111, sequence (whole entry, looked up): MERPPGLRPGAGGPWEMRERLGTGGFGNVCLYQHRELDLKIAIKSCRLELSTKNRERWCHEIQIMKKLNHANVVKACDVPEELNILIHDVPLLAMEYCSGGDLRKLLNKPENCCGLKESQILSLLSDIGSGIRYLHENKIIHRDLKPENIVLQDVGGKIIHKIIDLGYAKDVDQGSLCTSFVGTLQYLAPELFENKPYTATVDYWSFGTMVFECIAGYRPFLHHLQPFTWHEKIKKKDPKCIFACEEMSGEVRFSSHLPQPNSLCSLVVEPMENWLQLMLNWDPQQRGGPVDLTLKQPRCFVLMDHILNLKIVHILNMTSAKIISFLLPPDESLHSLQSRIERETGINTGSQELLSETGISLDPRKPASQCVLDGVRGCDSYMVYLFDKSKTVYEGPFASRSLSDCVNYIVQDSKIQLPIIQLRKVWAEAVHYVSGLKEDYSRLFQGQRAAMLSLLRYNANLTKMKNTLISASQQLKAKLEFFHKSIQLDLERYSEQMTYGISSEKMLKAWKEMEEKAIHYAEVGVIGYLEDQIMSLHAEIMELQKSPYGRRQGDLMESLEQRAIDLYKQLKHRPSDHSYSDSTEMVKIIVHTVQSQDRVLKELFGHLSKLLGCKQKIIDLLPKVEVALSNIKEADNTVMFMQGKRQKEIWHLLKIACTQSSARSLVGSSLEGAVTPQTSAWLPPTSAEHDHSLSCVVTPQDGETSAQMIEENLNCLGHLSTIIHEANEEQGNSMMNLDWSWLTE

# Study 1
# Structure (SMILES): CC[C@@]1(c2cccc(C(F)(F)F)c2)C2=C(Nc3n[nH]cc31)[C@H](F)C(C)(C)CC2=O (single isomer, unassigned)
# Concentration: 1 µM
target,assay,how to read,remaining binding
"Tyrosine-protein kinase ABL1, non-phosphorylated (ABL1, Homo sapiens, UniProt P00519)","kinase binding, KINOMEscan",baseline: DMSO control,33%
"CDC42BPB (Homo sapiens, UniProt Q9Y5S2)","kinase binding, KINOMEscan",baseline: DMSO control,100%
"Tyrosine-protein kinase ABL1, phosphorylated (ABL1, Homo sapiens, UniProt P00519, Q252H)","binding, competition with immobilised ligand",,60%
"CDK11A (Homo sapiens, UniProt Q9UQ88)","kinase binding, KINOMEscan",baseline: DMSO control,100%
"HIPK1 (Homo sapiens, UniProt Q86Z02)","binding, competition with immobilised ligand",,73%
"EPHA1 (Homo sapiens, UniProt P21709)","binding, competition with immobilised ligand",,100%
"NEK2 (Homo sapiens, UniProt P51955)","binding, competition with immobilised ligand",,11%
"MARK2 (Homo sapiens, UniProt Q7KZI7)","kinase binding, KINOMEscan",baseline: DMSO control,17%
"Ribosomal protein S6 kinase alpha-6, C-terminal kinase domain (RPS6KA6, Homo sapiens, UniProt Q9UK32)","binding, competition with immobilised ligand",,91%
"TLK1 (Homo sapiens, UniProt Q9UKI8)","kinase binding, KINOMEscan",baseline: DMSO control,85%
"PIK3CA (Homo sapiens, UniProt P42336, M1043I)","binding, competition with immobilised ligand",,98%
"TEK (Homo sapiens, UniProt Q02763)","binding, competition with immobilised ligand",,100%
"MKNK2 (Homo sapiens, UniProt Q9HBH9)","kinase binding, KINOMEscan",baseline: DMSO control,100%
"EPHB3 (Homo sapiens, UniProt P54753)","binding, competition with immobilised ligand",,100%
"PIK3CA (Homo sapiens, UniProt P42336, E545K)","kinase binding, KINOMEscan",baseline: DMSO control,71%
"ROCK2 (Homo sapiens, UniProt O75116)","binding, competition with immobilised ligand",,97%
"HASPIN (Homo sapiens, UniProt Q8TF76)","kinase binding, KINOMEscan",baseline: DMSO control,86%
"DMPK (Homo sapiens, UniProt Q09013)","binding, competition with immobilised ligand",,77%
"NLK (Homo sapiens, UniProt Q9UBE8)","binding, competition with immobilised ligand",,95%

# Study 2
# Compound: CN(C1COC1)C(C)(C)/C=C(\C#N)C(=O)N1CCC[C@H]1Cn1nc(-c2ccc(Oc3ccccc3)cc2F)c2c(N)ncnc21
# Effect on: kinase activity
target,conditions,inhibition [%]
"BLK (Homo sapiens, UniProt P51451)",0.1 µM,47
"FGR (Homo sapiens, UniProt P09769)",1 µM,65
"MKNK1 (Homo sapiens, UniProt Q9BUB5)",1 µM,5
"EPHA8 (Homo sapiens, UniProt P29322)",0.1 µM,7
"AXL (Homo sapiens, UniProt P30530)",0.1 µM,1
"MAPK13 (Homo sapiens, UniProt O15264)",1 µM,-7
"PDPK1 (Homo sapiens, UniProt O15530)",0.1 µM,-6
"STK4 (Homo sapiens, UniProt Q13043)",1 µM,6
"PASK (Homo sapiens, UniProt Q96RG2)",0.1 µM,3
"DCLK2 (Homo sapiens, UniProt Q8N568)",0.1 µM,2
"RPS6KB1 (Homo sapiens, UniProt P23443)",1 µM,4
"CDK7 (Homo sapiens, UniProt P50613)",1 µM,-2
"PHKG1 (Homo sapiens, UniProt Q16816)",0.1 µM,6
"YES1 (Homo sapiens, UniProt P07947)",0.1 µM,18
"PIK3CD (Homo sapiens, UniProt O00329)",1 µM,6
"PRKG1 (Homo sapiens, UniProt Q13976)",1 µM,-2
"PAK1 (Homo sapiens, UniProt Q13153)",0.1 µM,0
"FLT1 (Homo sapiens, UniProt P17948)",1 µM,1
"CAMK2D (Homo sapiens, UniProt Q13557)",1 µM,7
"Aurora kinase A (AURKA, Homo sapiens, UniProt O14965)",0.1 µM,1

# Study 3
# Target: GTPase KRas, GDP-bound (KRAS, Homo sapiens, UniProt P01116, G12D)
# Action: binder
# Method: multi-cycle SPR
# Setting: binary, without VCB
SMILES,dissociation rate constant (kd)
Cc1ncsc1-c1ccc(C2(NC(=O)C3CC(O)CN3C(=O)C(NC(=O)c3ccc(COc4c(-c5c(C)c(F)cc6[nH]ncc56)c(C5CC5)cc5c(N6CC7CC6CN7)nc(OC6CCOCC6)nc45)cc3)C(C)C)CC2)cc1 (stereo not shown),0.00565 s⁻¹ and 0.00799 s⁻¹ and 0.00922 s⁻¹ and 0.00949 s⁻¹ and 0.00936 s⁻¹
Cc1ncsc1-c1ccc(C2(NC(=O)C3CC(O)CN3C(=O)C(NC(=O)c3ccc(COc4c(-c5c(C)c(F)cc6[nH]ncc56)c(C5CC5)cc5c(N6CC7CC6CN7)nc(OC6CCOCC6)nc45)cc3)C(C)(C)C)CC2)cc1 (stereo not shown),0.00841 s⁻¹ and 0.00865 s⁻¹ and 0.00615 s⁻¹ and 0.00592 s⁻¹ and 0.00598 s⁻¹
Cc1ncsc1-c1ccc(C(CO)NC(=O)C2CC(O)CN2C(=O)C(C(C)C)n2cc(-c3ccc(COc4c(-c5c(C)c(F)cc6[nH]ncc56)c(C5CC5)cc5c(N6CC7CC6CN7)nc(OC6CCOCC6)nc45)cc3)nn2)cc1 (stereo not shown),0.00398 s⁻¹ and 0.00355 s⁻¹ and 0.00345 s⁻¹ and 0.00348 s⁻¹ and 0.00262 s⁻¹

# Study 4
# SMILES: CN1CCC[C@H]1COc1nc2c(c(N3CCN(C(=O)C4CC4)[C@@H](CC#N)C3)n1)CCN(c1cccc3cccc(Cl)c13)C2
# Effect on: binding
# Action: competitor
# Method: NanoBRET
# Cells: HEK293
# KRAS Q61H: GTPase KRas (KRAS, Homo sapiens, UniProt P01116, Q61H)
target,conditions,normalized BRET
"GTPase KRas (KRAS, Homo sapiens, UniProt P01116, G12D)",45.7 nM,95% and 99.8% and 102%
"GTPase KRas (KRAS, Homo sapiens, UniProt P01116, Q61L)",11.1 µM,38.1% and 37% and 35.1%
KRAS Q61H,1.24 µM,67.3% and 65.6% and 68.1%
"GTPase KRas (KRAS, Homo sapiens, UniProt P01116, Q61R)",412 nM,93.1% and 81.7% and 97%
"GTPase KRas (KRAS, Homo sapiens, UniProt P01116, G13D)",1.24 µM,70.7% and 64.8% and 62.5%
KRAS Q61H,3.7 µM,42% and 50.1% and 42.6%

# Study 5
# SMILES: C[C@@H]1CN(c2ccc(-c3cc(C(=O)NCCOCCOCCOCCOCCOCCOCCNC(=O)/C=C/c4[nH]cc(C(=O)N[C@@H](CC(N)=O)c5ccc(F)c(Cl)c5)c4-c4ccc(Cl)cc4F)ccc3F)cc2NC(=O)c2ccc(F)cc2C(F)(F)F)C[C@H](C)N1C
# Effect on: thermal unfolding
# Method: differential scanning fluorimetry
# Concentration: 5.5 µM
# Direction: higher = more unfolded
# DCAF1: DDB1- and CUL4-associated factor 1 (DCAF1, Homo sapiens, UniProt Q9Y4B6)
# UniProt Q9Y4B6, sequence (whole entry, looked up): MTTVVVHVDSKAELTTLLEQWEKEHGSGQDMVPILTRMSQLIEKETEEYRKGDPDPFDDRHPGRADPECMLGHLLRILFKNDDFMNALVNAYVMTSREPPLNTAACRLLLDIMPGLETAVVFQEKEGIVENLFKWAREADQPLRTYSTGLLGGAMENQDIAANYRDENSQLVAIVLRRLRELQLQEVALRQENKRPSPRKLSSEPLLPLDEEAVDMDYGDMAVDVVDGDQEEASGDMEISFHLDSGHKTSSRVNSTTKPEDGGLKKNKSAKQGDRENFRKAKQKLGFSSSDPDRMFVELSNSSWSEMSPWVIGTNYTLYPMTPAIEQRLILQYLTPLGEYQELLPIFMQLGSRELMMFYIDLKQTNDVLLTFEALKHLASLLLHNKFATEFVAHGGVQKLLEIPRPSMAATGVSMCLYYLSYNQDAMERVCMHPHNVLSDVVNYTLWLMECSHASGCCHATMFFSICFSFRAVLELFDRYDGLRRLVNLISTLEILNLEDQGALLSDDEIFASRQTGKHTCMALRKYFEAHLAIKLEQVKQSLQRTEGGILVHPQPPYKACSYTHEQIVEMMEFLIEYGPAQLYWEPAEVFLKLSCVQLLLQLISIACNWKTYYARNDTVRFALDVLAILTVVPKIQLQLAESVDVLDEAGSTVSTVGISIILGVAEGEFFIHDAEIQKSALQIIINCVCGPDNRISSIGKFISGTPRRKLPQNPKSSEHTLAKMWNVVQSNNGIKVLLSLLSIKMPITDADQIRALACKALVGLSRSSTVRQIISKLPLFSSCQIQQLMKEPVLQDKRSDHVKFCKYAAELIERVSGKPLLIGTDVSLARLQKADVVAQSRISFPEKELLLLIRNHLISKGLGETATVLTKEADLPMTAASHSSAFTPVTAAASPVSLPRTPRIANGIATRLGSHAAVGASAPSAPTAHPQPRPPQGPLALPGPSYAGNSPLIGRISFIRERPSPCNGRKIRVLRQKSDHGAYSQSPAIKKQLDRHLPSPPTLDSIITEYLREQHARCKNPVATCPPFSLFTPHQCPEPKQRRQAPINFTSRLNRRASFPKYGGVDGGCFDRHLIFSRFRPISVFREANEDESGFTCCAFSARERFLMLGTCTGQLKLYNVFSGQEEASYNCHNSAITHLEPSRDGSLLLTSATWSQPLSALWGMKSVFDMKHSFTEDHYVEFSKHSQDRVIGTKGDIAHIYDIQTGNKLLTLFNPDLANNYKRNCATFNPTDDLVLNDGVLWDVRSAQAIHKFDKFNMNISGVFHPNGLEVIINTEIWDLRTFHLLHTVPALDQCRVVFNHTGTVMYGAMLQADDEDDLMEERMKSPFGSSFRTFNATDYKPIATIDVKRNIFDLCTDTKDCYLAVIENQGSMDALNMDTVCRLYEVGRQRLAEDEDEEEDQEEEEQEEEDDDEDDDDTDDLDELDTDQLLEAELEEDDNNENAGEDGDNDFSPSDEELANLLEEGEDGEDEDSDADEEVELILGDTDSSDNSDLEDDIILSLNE
# WDR5: WD repeat-containing protein 5 (WDR5, Homo sapiens, UniProt P61964)
target,conditions,SYPRO Orange fluorescence [a.u.]
DCAF1,80.81 °C,39400
DCAF1,92.41 °C,30500
WDR5,48.2 °C,15600
WDR5,82.41 °C,65400
DCAF1,58.41 °C,40400
DCAF1,82.21 °C,38400
WDR5,70.61 °C,29600
DCAF1,38 °C,11000
DCAF1,56.01 °C,30400
WDR5,25.6 °C,13200
WDR5,88.61 °C,57000

# Study 6
# SMILES: CCCN1C(=O)C(O)(C(=O)O)Oc2cc(F)ccc21 (stereo not shown)
organism,assay,system,conditions,how to read,inhibition
Arabidopsis thaliana,root length,"Col-0, seedlings",100 µg/mL,baseline: water control,89.2%
Arabidopsis thaliana,root length,Col-0,"25.0 µg/mL, 7 days, seed germination, dark",,51.1%
Arabidopsis thaliana,root length,"Col-0, seedlings",6.25 µg/mL,,22.5%
Arabidopsis thaliana,root length,Col-0,"6.25 µg/mL, 7 days, seed germination, dark",,22.5%
Arabidopsis thaliana,hypocotyl length,Col-0,"3.125 µg/mL, 7 days, seed germination, dark",,5.3%
Abutilon theophrasti,fresh weight,,"150 g ai/ha, pre-emergence treatment",,86.2% and 85.4% and 77.7%
Alopecurus japonicus,fresh weight,,"150 g ai/ha, pre-emergence treatment",,37.1% and 38.7% and 35.2%
Echinochloa crus-galli,fresh weight,,"150 g ai/ha, post-emergence treatment",,40.5% and 44% and 43.3%
Arabidopsis thaliana,root length,Col-0,"12.5 µg/mL, 7 days, seed germination, dark",,30.8%
Arabidopsis thaliana,root length,"Col-0, seedlings",12.5 µg/mL,,30.8%
Arabidopsis thaliana,hypocotyl length,"Col-0, seedlings",3.125 µg/mL,,5.34%
Arabidopsis thaliana,root length,"Col-0, seedlings",100 µg/mL,,89.2%

# Study 7
# Target: E3 ubiquitin-protein ligase NEDD4 (Homo sapiens, UniProt P46934)
# Effect on: enzyme activity
# Action: inhibitor
# Method: TR-FRET
# Target sequence (P46934 938-1319, limits assumed): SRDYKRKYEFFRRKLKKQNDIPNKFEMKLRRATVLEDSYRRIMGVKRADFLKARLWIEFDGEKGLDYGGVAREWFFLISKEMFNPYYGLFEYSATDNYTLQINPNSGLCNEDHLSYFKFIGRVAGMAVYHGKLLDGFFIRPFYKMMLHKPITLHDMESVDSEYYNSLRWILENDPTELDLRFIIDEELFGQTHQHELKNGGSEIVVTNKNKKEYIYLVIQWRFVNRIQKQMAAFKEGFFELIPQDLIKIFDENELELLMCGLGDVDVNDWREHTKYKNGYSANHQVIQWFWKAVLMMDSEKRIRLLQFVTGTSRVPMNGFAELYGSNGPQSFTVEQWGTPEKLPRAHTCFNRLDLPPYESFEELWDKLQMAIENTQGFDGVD
Structure (SMILES),IC50 [nM]
CCOC(=O)/C=C/CNCCCCN1c2cc(Cl)ccc2COc2ccccc21,900
CCOC(=O)/C=C/CNCCCCN1c2cc(Cl)ccc2C(=O)N(C)c2ccccc21,1650
CNC(=O)/C=C/CNCCCCN1c2ccccc2CCc2ccc(Cl)cc21,16000
CCONC(=O)/C=C/CNCCCCN1c2ccccc2CCc2ccc(Cl)cc21,570
CC(C)ONC(=O)/C=C/CNCCCCN1c2ccccc2CCc2ccc(Cl)cc21,1280

# Study 8
# Structure (SMILES): COc1cc(-c2nc3ccc(C(=O)NCCCN(C)C)cc3n2C2CCC2)cc(OC)c1OC
# Effect on: binding
# Method: competition with immobilised ligand
# Concentration: 1 µM
target,remaining binding
"NEK2 (Homo sapiens, UniProt P51955)",85%
"LIM domain kinase 1 (LIMK1, Homo sapiens, UniProt P53667)",79%
"TIE1 (Homo sapiens, UniProt P35590)",96%
"CHUK (Homo sapiens, UniProt O15111)",100%
"Ribosomal protein S6 kinase alpha-3, N-terminal kinase domain (RPS6KA3, Homo sapiens, UniProt P51812)",100%
"CDC42BPB (Homo sapiens, UniProt Q9Y5S2)",96%
"MAP4K3 (Homo sapiens, UniProt Q8IVH8)",80%
"Cyclin-dependent kinase 4, with cyclin D1 (CDK4, Homo sapiens, UniProt P11802)",85%
"CSNK1G2 (Homo sapiens, UniProt P78368)",91%
"ACVR1B (Homo sapiens, UniProt P36896)",55%
"HIPK4 (Homo sapiens, UniProt Q8NE63)",100%
"CLK1 (Homo sapiens, UniProt P49759)",97%
"OXSR1 (Homo sapiens, UniProt O95747)",100%
"AKT2 (Homo sapiens, UniProt P31751)",97%
"Tyrosine-protein kinase JAK1, JH2 (JAK1, Homo sapiens, UniProt P23458)",92%
"WNK1 (Homo sapiens, UniProt Q9H4A3)",100%
"MAP3K19 (Homo sapiens, UniProt Q56UN5)",99%

# Single results of other studies
# PKMYT1: Membrane-associated tyrosine- and threonine-specific cdc2-inhibitory kinase (PKMYT1, Homo sapiens, UniProt Q99640)
# UniProt Q99640, sequence (whole entry, looked up): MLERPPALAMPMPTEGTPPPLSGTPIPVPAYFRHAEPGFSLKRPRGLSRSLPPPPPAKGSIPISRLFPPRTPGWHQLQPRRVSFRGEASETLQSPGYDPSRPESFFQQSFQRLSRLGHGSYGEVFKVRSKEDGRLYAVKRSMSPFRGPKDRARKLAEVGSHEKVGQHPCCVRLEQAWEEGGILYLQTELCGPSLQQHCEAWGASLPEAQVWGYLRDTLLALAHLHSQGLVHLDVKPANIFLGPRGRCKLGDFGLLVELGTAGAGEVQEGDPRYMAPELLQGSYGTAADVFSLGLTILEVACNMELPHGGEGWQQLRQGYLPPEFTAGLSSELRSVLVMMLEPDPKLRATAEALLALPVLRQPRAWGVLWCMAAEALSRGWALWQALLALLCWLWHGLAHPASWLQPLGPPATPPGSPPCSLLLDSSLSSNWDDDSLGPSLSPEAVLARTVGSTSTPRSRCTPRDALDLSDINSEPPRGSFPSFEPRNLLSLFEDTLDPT
SMILES,target or system,assay,system,conditions,how to read,measurement,result
"Cc1ccc(O)c(C)c1-c1cnc2[nH]c(-c3cnc(N4CCC5(CC4)CC(N4CCN(c6ccc(N[C@H]7CCC(=O)NC7=O)cc6F)CC4)CO5)nc3)cc2c1C#N (single isomer, unassigned)",PKMYT1,immunoblotting,,"0.1 µM, unit not given",baseline: untreated,protein level,0.298 and 0.221 and 0.336
Cc1ccc(O)c(C)c1-c1cnc2[nH]c(-c3cnc(N4CCC5(CC4)CC(N4CCN(c6cc7c(cc6F)c(N6CCC(=O)NC6=O)nn7C)CC4)CO5)nc3)cc2c1C#N (racemic),PKMYT1,"degrader, automated immunoblot (Jess)",,100 nM,baseline: GAPDH,protein level,45.4%
Cc1ccc(O)c(C)c1-c1cnc2[nH]c(-c3cnc(N)nc3)cc2c1C#N,,,Sprague-Dawley rat,"intravenous, dose not given, 24 h",,plasma concentration,not detected
Cc1ncc(-c2cc3c(Cl)c(-c4c(C)ccc(O)c4C)cnc3[nH]2)cn1,PKMYT1,"binding, HTRF",,4.57 nM,,inhibition,-5.32% and -12%
